Measurements from different studies.
Protocols differ between the studies behind these lines. Several values in a cell are separate wells, animals, samples, runs or records. ± marks the error that the study gave.
WD repeat-containing protein 91 WD40 domain, residues 392–747: WD repeat-containing protein 91, WD40 domain, residues 392–747 (Homo sapiens, UniProt A4D1P6)
Chain of UniProt A4D1P6 (whole entry, looked up): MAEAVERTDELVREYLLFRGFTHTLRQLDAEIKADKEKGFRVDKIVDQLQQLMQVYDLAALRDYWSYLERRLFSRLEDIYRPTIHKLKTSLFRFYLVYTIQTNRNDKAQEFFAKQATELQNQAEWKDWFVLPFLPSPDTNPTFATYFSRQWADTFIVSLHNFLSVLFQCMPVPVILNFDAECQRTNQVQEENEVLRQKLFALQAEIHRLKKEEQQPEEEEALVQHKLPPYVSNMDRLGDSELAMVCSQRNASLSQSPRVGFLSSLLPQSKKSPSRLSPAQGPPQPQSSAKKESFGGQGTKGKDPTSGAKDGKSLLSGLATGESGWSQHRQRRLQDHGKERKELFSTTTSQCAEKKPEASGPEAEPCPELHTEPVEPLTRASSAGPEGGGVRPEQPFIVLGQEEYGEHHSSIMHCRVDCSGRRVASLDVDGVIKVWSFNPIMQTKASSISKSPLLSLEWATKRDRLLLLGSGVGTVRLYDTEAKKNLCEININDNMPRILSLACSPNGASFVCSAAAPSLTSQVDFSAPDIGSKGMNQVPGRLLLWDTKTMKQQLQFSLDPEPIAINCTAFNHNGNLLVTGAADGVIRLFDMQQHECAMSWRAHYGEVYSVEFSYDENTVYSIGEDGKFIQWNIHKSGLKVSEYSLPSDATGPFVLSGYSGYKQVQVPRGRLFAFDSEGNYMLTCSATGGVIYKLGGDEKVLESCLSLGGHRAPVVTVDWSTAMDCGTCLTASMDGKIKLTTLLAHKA
Glutamate receptor 2: Glutamate receptor 2 (Homo sapiens, UniProt P42262)
Chain of UniProt P42262 (whole entry, looked up): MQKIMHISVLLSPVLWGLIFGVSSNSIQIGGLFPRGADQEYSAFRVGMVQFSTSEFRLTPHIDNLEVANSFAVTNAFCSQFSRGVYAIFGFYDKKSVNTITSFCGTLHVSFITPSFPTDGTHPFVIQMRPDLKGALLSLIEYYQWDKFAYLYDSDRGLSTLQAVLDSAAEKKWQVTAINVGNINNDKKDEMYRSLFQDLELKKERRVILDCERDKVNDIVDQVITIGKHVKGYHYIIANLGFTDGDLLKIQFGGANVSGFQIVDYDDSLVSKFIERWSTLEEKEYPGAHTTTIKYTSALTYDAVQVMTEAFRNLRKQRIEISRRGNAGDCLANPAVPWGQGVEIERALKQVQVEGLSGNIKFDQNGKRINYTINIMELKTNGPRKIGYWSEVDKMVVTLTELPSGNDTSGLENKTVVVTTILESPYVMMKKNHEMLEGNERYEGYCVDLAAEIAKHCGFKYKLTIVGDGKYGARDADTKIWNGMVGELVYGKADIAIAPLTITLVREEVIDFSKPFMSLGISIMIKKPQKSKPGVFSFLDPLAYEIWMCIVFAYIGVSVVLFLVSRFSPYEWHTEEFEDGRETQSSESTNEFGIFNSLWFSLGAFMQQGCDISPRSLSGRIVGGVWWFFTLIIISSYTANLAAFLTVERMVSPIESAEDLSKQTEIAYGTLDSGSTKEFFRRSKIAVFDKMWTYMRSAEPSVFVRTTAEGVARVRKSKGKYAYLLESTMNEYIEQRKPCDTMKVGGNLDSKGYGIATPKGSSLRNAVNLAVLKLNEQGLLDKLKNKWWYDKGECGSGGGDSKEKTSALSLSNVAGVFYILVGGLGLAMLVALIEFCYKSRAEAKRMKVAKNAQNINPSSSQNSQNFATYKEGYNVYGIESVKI
SPRY domain-containing SOCS box protein 2 SPRY domain: SPRY domain-containing SOCS box protein 2, SPRY domain (Homo sapiens, UniProt Q99619)
Chain of UniProt Q99619 (whole entry, looked up): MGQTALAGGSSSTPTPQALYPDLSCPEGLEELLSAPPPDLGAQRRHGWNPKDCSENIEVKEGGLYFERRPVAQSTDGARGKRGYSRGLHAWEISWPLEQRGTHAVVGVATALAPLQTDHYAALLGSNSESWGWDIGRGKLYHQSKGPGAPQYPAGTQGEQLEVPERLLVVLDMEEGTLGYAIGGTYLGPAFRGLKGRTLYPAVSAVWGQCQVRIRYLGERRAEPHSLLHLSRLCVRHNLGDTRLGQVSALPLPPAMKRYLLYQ
CALM1 Ca2+-bound C-lobe: Calmodulin-1, Ca2+-bound C-lobe (CALM1, Homo sapiens, UniProt P0DP23)
Genome polyprotein NS3 helicase domain: Genome polyprotein, NS3 helicase domain (Hepatitis C virus genotype 1b, UniProt Q9WMX2)
Chain of UniProt Q14683 (whole entry, looked up): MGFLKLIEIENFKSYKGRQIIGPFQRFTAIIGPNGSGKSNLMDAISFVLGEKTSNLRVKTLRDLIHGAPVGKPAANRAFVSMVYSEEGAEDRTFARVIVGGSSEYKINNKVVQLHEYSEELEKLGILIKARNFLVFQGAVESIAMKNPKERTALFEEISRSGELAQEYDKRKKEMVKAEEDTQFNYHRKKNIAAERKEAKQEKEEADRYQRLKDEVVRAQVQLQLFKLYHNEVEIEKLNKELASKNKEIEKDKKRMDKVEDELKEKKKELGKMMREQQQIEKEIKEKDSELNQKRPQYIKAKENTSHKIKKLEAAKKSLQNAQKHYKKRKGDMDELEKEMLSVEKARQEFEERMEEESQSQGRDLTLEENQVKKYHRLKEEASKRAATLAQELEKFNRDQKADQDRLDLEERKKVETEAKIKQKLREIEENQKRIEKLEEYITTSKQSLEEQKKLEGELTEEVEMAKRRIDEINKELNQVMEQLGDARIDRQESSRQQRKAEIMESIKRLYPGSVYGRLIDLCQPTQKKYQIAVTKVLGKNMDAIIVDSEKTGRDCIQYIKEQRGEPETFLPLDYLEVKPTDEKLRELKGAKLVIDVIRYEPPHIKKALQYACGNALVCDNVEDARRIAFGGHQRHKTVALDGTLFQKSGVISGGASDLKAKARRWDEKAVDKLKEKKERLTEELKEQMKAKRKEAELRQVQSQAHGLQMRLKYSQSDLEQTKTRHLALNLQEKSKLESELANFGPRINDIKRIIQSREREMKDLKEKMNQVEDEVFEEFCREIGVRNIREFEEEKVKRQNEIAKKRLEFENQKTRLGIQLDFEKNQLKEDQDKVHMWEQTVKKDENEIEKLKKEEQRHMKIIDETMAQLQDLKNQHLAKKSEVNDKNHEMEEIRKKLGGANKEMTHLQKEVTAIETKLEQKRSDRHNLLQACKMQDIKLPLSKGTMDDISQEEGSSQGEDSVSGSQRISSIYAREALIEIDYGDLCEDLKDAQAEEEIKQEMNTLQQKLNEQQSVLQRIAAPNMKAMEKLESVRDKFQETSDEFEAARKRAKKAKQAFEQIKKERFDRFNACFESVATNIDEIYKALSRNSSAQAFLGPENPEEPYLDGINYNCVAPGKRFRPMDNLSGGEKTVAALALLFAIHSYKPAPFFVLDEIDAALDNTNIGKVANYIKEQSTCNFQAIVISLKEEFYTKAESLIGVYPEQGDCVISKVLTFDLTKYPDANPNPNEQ
Chain of UniProt P51449 (whole entry, looked up): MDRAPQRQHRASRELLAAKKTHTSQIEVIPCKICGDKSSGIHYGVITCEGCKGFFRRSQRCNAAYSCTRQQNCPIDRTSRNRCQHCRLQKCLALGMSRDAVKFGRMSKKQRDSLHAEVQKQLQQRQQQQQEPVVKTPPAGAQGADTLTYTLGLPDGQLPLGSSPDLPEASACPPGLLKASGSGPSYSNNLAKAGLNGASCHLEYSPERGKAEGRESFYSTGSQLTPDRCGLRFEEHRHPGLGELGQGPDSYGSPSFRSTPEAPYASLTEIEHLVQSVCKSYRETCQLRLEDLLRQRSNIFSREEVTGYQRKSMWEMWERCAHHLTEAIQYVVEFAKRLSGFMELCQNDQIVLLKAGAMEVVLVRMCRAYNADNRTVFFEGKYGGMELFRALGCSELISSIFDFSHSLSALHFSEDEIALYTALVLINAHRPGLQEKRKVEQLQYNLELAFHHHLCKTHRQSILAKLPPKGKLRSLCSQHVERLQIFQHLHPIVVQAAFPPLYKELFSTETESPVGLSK
Chain of UniProt P03372 (whole entry, unmodified, looked up): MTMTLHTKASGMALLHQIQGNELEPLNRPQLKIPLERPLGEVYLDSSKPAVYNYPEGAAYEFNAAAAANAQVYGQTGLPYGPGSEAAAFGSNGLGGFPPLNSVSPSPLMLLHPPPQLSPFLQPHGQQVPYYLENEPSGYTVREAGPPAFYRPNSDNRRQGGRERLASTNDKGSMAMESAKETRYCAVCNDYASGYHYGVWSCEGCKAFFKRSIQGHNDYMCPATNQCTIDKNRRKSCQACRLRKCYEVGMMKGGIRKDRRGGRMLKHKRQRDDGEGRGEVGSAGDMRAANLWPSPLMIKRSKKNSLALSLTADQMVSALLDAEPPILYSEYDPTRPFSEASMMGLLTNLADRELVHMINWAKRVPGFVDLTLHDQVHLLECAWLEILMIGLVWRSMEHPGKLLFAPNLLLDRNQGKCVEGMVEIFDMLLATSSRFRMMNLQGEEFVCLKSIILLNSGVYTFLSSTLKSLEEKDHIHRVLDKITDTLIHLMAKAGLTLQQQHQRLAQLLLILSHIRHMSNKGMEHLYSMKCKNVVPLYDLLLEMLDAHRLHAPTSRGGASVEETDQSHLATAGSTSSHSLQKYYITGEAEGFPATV
Chain of UniProt P53341 (whole entry, looked up): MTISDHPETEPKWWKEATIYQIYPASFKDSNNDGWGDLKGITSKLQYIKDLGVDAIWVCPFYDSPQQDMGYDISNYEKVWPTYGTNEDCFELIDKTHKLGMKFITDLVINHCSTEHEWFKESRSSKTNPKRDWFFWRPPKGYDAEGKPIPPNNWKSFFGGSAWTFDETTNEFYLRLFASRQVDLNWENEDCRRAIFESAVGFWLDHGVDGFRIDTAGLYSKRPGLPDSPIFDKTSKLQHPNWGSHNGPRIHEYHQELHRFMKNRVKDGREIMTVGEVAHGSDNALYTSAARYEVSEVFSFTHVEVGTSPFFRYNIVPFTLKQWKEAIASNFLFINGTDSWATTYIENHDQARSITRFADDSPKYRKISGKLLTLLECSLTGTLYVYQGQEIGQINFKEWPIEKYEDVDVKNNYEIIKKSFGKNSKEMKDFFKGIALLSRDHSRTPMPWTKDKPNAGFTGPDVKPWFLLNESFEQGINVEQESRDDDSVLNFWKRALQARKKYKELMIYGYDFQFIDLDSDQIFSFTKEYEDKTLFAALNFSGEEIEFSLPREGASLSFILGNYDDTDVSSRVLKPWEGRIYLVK

With CC[C@H](C)[C@H](NC(=O)[C@H](CCC(=O)O)NC(=O)[C@H](CCC(=O)O)NC(=O)[C@@H]1CCCN1C(=O)[C@H](CC(=O)O)NC(=O)[C@H](C)NC(=O)[C@H](CCC(N)=O)NC(=O)[C@@H](NC(=O)[C@H](C)NC(=O)[C@@H](NC(=O)[C@H](CO)NC(=O)[C@@H](NC(=O)[C@H](CCCCN)NC(=O)[C@@H](N)Cc1ccc(O)cc1)[C@@H](C)O)C(C)C)[C@@H](C)O)C(=O)N[C@H](C(=O)N[C@H](C(=O)N[C@@H](CC(C)C)C(=O)N[C@@H](CC(=O)O)C(=O)N[C@@H](CC(=O)O)C(=O)N[C@@H](CC(=O)O)C(=O)N[C@@H](CC(=O)O)C(=O)O)C(C)C)[C@@H](C)CC the ΔG was -8.6 ± 0.13 kcal/mol (Small ubiquitin-related modifier 2, N-terminally truncated (Homo sapiens, UniProt P61956, C48A); binding, ITC; pH 7.4, 298.15 K, N-terminally truncated protein).
COc1ccccc1N(C)S(=O)(=O)c1ccc(C(=O)N2CCC(C#N)CC2)cc1 has a binding of -2% and -3% (WD repeat-containing protein 91 WD40 domain, residues 392–747; SPR; 45 µM).
Cc1[nH]c(C)c(S(=O)(=O)Nc2ccc(C(F)(F)F)c(Cl)c2)c1C(=O)N1CCC(F)(F)C1 has a Bmax of 1900 ± 230 fmol/mg (D(3) dopamine receptor (DRD3, Homo sapiens, UniProt P35462); saturation binding; 100 µM, together with: [3H]dopamine).
For CCCN1C[C@H](CSC)C[C@@H]2c3cccc4[nH]cc(c34)C[C@H]21, the activation was 3% (Glutamate receptor 2; ion current, agonist, SyncroPatch patch clamp; HEK293; 30 µM).
Under “log fold enrichment”, CC1(C)CC2(C)OC(=O)NC2(C)c2ccccc21 (stereo not drawn) is recorded as 0.0412 (SPRY domain-containing SOCS box protein 2 SPRY domain; binding, affinity selection mass spectrometry; relative to: other proteins in batch).
With COc1cc(O)c2c(=O)c(O[C@@H]3O[C@H](CO)[C@@H](O)[C@H](O)[C@H]3O)c(-c3ccc(O[C@@H]4O[C@H](CO)[C@@H](O)[C@H](O)[C@H]4O)cc3)oc2c1 the selectivity ratio was 0.81 (Estrogen receptor (ESR1, Homo sapiens, UniProt P03372); array formation; PRL-HeLa; relative to: EC50 ERβ over EC50 ERα).
With N[C@@H](CCC(=O)O)C(=O)O the product formation was 1.84 µM (N-alpha-acetyltransferase 80 (NAA80, Homo sapiens, UniProt Q93015); substrate, DTNB; 2 mM, 30 min, 37 °C, together with: acetyl-CoA 500 µM).
COc1cc(O)c2c(c1)oc(=O)c1c3cc(O)c(O)cc3oc21: “random coil content” 40.8% (Alpha-glucosidase MAL12 (MAL12, Saccharomyces cerevisiae S288c, UniProt P53341); circular dichroism; molar ratio 1:1).
For C[S+](CC[C@H](N)C(=O)[O-])C[C@H]1O[C@@H](n2cnc3c(N)ncnc32)[C@H](O)[C@@H]1O (stereo partly drawn), the apparent Km was 10.1 ± 0.4 µM (Histone-lysine N-methyltransferase 2C (KMT2C, Homo sapiens, UniProt Q8NEZ4); substrate, enzyme-coupled methylation; together with: H3 peptide 100 µM).
CC(C)OCCn1c(=S)[nH]c(=O)c2[nH]ccc21 gave an H2O2 concentration of -0.595 µM (Myeloperoxidase (MPO, Homo sapiens, UniProt P05164); H2O2 consumption, inhibitor, H2O2 electrode; 0.226 µM, 0.3 s).
For CC[C@H](C)[C@H](NC(=O)[C@H](CCSC)NC(=O)[C@H](CCSC)NC(=O)[C@H](C)NC(=O)[C@H](C)NC(=O)[C@H](Cc1ccc(O)cc1)NC(=O)[C@H](C)NC(=O)[C@H](CCCCN)NC(=O)CNC(=O)[C@@H](NC(=O)[C@@H](NC(=O)[C@H](CCSC)NC(=O)[C@H](Cc1c[nH]cn1)NC(=O)CN)[C@@H](C)O)C(C)C)C(=O)N[C@@H](CCSC)C(=O)N[C@@H](CCC(=O)O)C(=O)N[C@@H](Cc1ccc(O)cc1)C(=O)N[C@@H](Cc1ccc(O)cc1)C(=O)N[C@@H](CCCNC(=N)N)C(=O)N[C@@H](CCC(N)=O)C(=O)N[C@@H](CO)C(=O)N[C@@H](CCCCN)C(=O)N[C@@H](C)C(=O)N[C@@H](CCCCN)C(=O)N[C@@H](CCCCN)C(=O)N[C@@H](CC(C)C)C(=O)N[C@@H](CCC(N)=O)C(=O)N[C@@H](C)C(=O)N[C@@H](CCSC)C(=O)N[C@@H](CCCNC(=N)N)C(=O)O, the ΔS was 23 ± 0.5 cal/mol/K (CALM1 Ca2+-bound C-lobe; binding, isothermal titration calorimetry; pH 7.4, 15 °C, C-lobe, CaV2.1 IQ domain, together with: Ca2+).
For O=S(=O)(NC1CCN(c2ncnc3c2nc(-c2ccccc2Cl)n3-c2ccc(C(F)(F)F)nc2)CC1)c1ccccc1F, the selectivity ratio was 100 (Cannabinoid receptor 1 (CNR1, Homo sapiens, UniProt P21554); binding, [3H]CP55940 displacement; relative to: Ki CB2 over Ki CB1).
The inhibition of C[C@]12CCC(=O)C=C1CC[C@@H]1[C@@H]2CC[C@@]2(C)[C@H]1CC[C@]2(O)C(=O)CO is reported as 0% (Genome polyprotein NS3 helicase domain; DNA binding, inhibitor; hepatitis C virus; 100 µM, together with: Cy5-dT15 DNA).
For O=C(COP(=O)(O)O)[C@@H](O)[C@H](O)[C@H](O)COP(=O)(O)O, “thermal stability ratio” read 0.444 and 0.667 and 0.786 (Structural maintenance of chromosomes protein 1A (Homo sapiens, UniProt Q14683); thermal proteome profiling, item: SMC1A; HepG2 cell lysate; concentration not given, 57 over 37 °C; relative to: compound over control).
CC[C@H](C)[C@H](NC(=O)[C@H](CCSC)NC(=O)[C@H](CCSC)NC(=O)[C@H](C)NC(=O)[C@H](C)NC(=O)[C@H](Cc1ccc(O)cc1)NC(=O)[C@@H](NC(=O)[C@H](CCCCN)NC(=O)CNC(=O)[C@@H](NC(=O)[C@@H](NC(=O)[C@H](CCSC)NC(=O)[C@H](Cc1c[nH]cn1)NC(=O)CN)[C@@H](C)O)C(C)C)[C@@H](C)CC)C(=O)N[C@@H](C)C(=O)N[C@@H](CCC(=O)O)C(=O)N[C@@H](Cc1ccc(O)cc1)C(=O)N[C@@H](Cc1ccc(O)cc1)C(=O)N[C@@H](CCCNC(=N)N)C(=O)N[C@@H](CCC(N)=O)C(=O)N[C@@H](CO)C(=O)N[C@@H](CCCCN)C(=O)N[C@@H](C)C(=O)N[C@@H](CCCCN)C(=O)N[C@@H](CCCCN)C(=O)N[C@@H](CC(C)C)C(=O)N[C@@H](CCC(N)=O)C(=O)N[C@@H](C)C(=O)N[C@@H](CCSC)C(=O)N[C@@H](CCCNC(=N)N)C(=O)O has a stoichiometry of 0.93 ± 0.05 (CALM1 Ca2+-bound C-lobe; binding, isothermal titration calorimetry; pH 7.4, 15 °C, Ca2+-bound C-lobe, together with: CaV2.1 IQ peptide).
For Cc1ccc(C(=O)Nc2ccc(S(=O)(=O)O)c3cc(S(=O)(=O)O)cc(S(=O)(=O)O)c23)cc1NC(=O)c1cccc(NC(=O)Nc2cccc(C(=O)Nc3cc(C(=O)Nc4ccc(S(=O)(=O)O)c5cc(S(=O)(=O)O)cc(S(=O)(=O)O)c45)ccc3C)c2)c1, the inhibition was 96% (Genome polyprotein NS3 helicase domain; DNA binding, inhibitor; hepatitis C virus; 100 µM, together with: Cy5-dT15 DNA).
O=C1CC[C@H](N2Cc3cc(N4CCN(CC5CCN(c6ccc([C@@H]7c8ccc(O)cc8CC[C@@H]7c7ccccc7)cc6)CC5)CC4)ccc3C2=O)C(=O)N1: “ER level reduction” > 80% (Estrogen receptor (ESR1, Homo sapiens, UniProt P03372, D538G); degrader, western blot; MCF7 ESR1 D538G; 10 and 100 nM, 7 h).
For CC(C)NCC(O)COc1cccc2ccccc12 (stereo not drawn), the inhibition was 1% (Glutamate receptor 2; ion current, negative allosteric modulator, SyncroPatch patch clamp; HEK293; 10 µM).
With COc1cc(/C=C/c2cc(/C=C/c3ccc(O)c(OC)c3)n(-c3cccc([N+](=O)[O-])c3)n2)ccc1O the ΔS was -195 ± 9.05 J/(mol·K) (haemin; binding, isothermal titration calorimetry; pH 7.4, 37 °C).
With c1ccc(C(NCc2cccnc2)(c2ccccc2)c2ccccc2)cc1 the Hill coefficient was 0.88 (Potassium voltage-gated channel subfamily KQT member 1, with KCNE1 (KCNQ1, Homo sapiens, UniProt P51787); IKs tail current, whole-cell patch clamp; tsA201 with KCNQ1-KCNE1 fusion).
N#CC1CCN(C(=O)c2ccc(Cn3cc(-c4ccc5c(c4)NCCO5)nn3)cc2)CC1 has an SPR response of -9.2 RU and -18 RU (WD repeat-containing protein 91 WD40 domain, residues 392–747; binding, SPR single-concentration screen; 45 µM).
With C=CC(=O)Nc1cc(NC(=O)c2cnn(-c3ccccc3F)c2)ccc1F the FP signal was 97.3% (14-3-3 protein sigma, with ERα phosphopeptide (SFN, Homo sapiens, UniProt P31947); binding, fluorescence polarization; covalent ligand screen, together with: phosphorylated ERalpha peptide; relative to: control).
CC1CCCN(C(=O)c2cc3ncccn3n2)C1 (stereo not drawn): “log fold enrichment” -0.126 (SPRY domain-containing SOCS box protein 2 SPRY domain; binding, affinity selection mass spectrometry; relative to: other proteins in batch).
The β-sheet content of CCCc1cc(=O)oc2cc(OCc3cc(=O)c(O)co3)ccc12 is reported as 16.9% (PPO3 (Agaricus bisporus, UniProt C7FF04); secondary structure of tyrosinase, CD spectroscopy; molar ratio 1:1).
CC[C@H](NC(=O)c1c(C)c(-c2ccccc2)nc2ccccc12)c1ccccc1 has an inhibition of 1% (Genome polyprotein NS3 helicase domain; DNA binding, inhibitor; hepatitis C virus; 100 µM, together with: Cy5-dT15 DNA).
Under “maximum agonist efficacy”, N#Cc1cccc(C(=O)Nc2cc(-c3ccccc3)nn2-c2ccccc2)c1 is recorded as 13% (Metabotropic glutamate receptor 5 (Grm5, Rattus norvegicus, UniProt P31424); calcium mobilization, agonist; HEK293 cells, low receptor expression; relative to: glutamate maximum).
Brc1ccc([C@H]2CN3CCSC3=N2)cc1.O=C(O)C(=O)O gave an inhibition of 0% (Genome polyprotein NS3 helicase domain; DNA binding, inhibitor; hepatitis C virus; 100 µM, together with: Cy5-dT15 DNA).
With C=CC(=O)N1CCC(COCC(=O)N2CCN(c3nc(-c4cnc(N)nc4C(F)F)nc(N4CCOC[C@@H]4C)n3)CC2)CC1 the remaining binding was 100% (Serine/threonine-protein kinase WNK1 (WNK1, Homo sapiens, UniProt Q9H4A3); KINOMEscan; 1 µM; relative to: DMSO control).
With COC(=O)c1cn(C)c2ccc(-c3cccnc3)cc12 the activation was 0.76 fold (Nuclear receptor ROR-gamma (RORC, Homo sapiens, UniProt P51449); reporter gene, Gal4 hybrid reporter; 10 µM; relative to: vehicle).
For N=C(N)Nc1nc2ccccc2[nH]1, the Hill coefficient was 0.9 ± 0.04 (Voltage-gated hydrogen channel 1 (HVCN1, Homo sapiens, UniProt Q96D96, F149W); proton current, inhibitor, inside-out patch clamp).
For O=C1O/C(=C/Br)CCC1c1cccc2ccccc12 (stereo not drawn), the inhibition was 0% (Genome polyprotein NS3 helicase domain; DNA binding, inhibitor; hepatitis C virus; 100 µM, together with: Cy5-dT15 DNA).
N#CC1CCN(C(=O)c2ccc(CCc3c[nH]c4nc(N)[nH]c(=O)c34)cc2)CC1 gave an SPR response of -3.9 RU and 2.3 RU (WD repeat-containing protein 91 WD40 domain, residues 392–747; binding, SPR single-concentration screen; 45 µM).
CC[C@@H]1[C@H](F)C(=O)N[C@@H]1COc1nccc2cc(C(N)=O)c(OC)cc12 has an inhibition of 14.2% (Calcium/calmodulin-dependent protein kinase type II subunit delta (CAMK2D, Homo sapiens, UniProt Q13557); ATP-site probe binding, ActivX profiling; THP-1 cell lysate; 0.01 mM, Lys1 site).

Some of these lines once more:
For O=C(COP(=O)(O)O)[C@@H](O)[C@H](O)[C@H](O)COP(=O)(O)O, “thermal stability ratio” read 0.444 and 0.667 and 0.786 (Structural maintenance of chromosomes protein 1A (Homo sapiens, UniProt Q14683); thermal proteome profiling, item: SMC1A; HepG2 cell lysate; concentration not given, 57 over 37 °C; relative to: compound over control).
CC[C@H](C)[C@H](NC(=O)[C@H](CCSC)NC(=O)[C@H](CCSC)NC(=O)[C@H](C)NC(=O)[C@H](C)NC(=O)[C@H](Cc1ccc(O)cc1)NC(=O)[C@@H](NC(=O)[C@H](CCCCN)NC(=O)CNC(=O)[C@@H](NC(=O)[C@@H](NC(=O)[C@H](CCSC)NC(=O)[C@H](Cc1c[nH]cn1)NC(=O)CN)[C@@H](C)O)C(C)C)[C@@H](C)CC)C(=O)N[C@@H](C)C(=O)N[C@@H](CCC(=O)O)C(=O)N[C@@H](Cc1ccc(O)cc1)C(=O)N[C@@H](Cc1ccc(O)cc1)C(=O)N[C@@H](CCCNC(=N)N)C(=O)N[C@@H](CCC(N)=O)C(=O)N[C@@H](CO)C(=O)N[C@@H](CCCCN)C(=O)N[C@@H](C)C(=O)N[C@@H](CCCCN)C(=O)N[C@@H](CCCCN)C(=O)N[C@@H](CC(C)C)C(=O)N[C@@H](CCC(N)=O)C(=O)N[C@@H](C)C(=O)N[C@@H](CCSC)C(=O)N[C@@H](CCCNC(=N)N)C(=O)O has a stoichiometry of 0.93 ± 0.05 (CALM1 Ca2+-bound C-lobe; binding, isothermal titration calorimetry; pH 7.4, 15 °C, Ca2+-bound C-lobe, together with: CaV2.1 IQ peptide).
For Cc1ccc(C(=O)Nc2ccc(S(=O)(=O)O)c3cc(S(=O)(=O)O)cc(S(=O)(=O)O)c23)cc1NC(=O)c1cccc(NC(=O)Nc2cccc(C(=O)Nc3cc(C(=O)Nc4ccc(S(=O)(=O)O)c5cc(S(=O)(=O)O)cc(S(=O)(=O)O)c45)ccc3C)c2)c1, the inhibition was 96% (Genome polyprotein NS3 helicase domain; DNA binding, inhibitor; hepatitis C virus; 100 µM, together with: Cy5-dT15 DNA).
